Experimental data gathered from unrelated publications.
Lines come from different studies, so protocols differ.

`CC(=O)O[C@H]1C(=O)[C@@]2(C)[C@H]([C@H](OC(=O)c3ccccc3)[C@]3(O)C[C@H](OC(=O)[C@H](O)[C@@H](NC(=O)c4ccccc4)c4ccccc4)C(C)=C1C3(C)C)[C@]1(OC(C)=O)CO[C@@H]1C[C@@H]2O`: “adverse events, all grades” 43% (measured: neutropenia; patients with advanced solid tumours; intravenous, dose not given, phase Ib, related to compound).
Under “adverse event incidence”, `Cc1ccc(Sc2ccccc2N2CCNCC2)c(C)c1` is recorded as 5% (TEAE dysphoria; healthy adult men; oral, 10 mg single dose, 8 nights, overall).
Under “adverse event incidence”, `O=C1CCc2ccc(OCCCCN3CCN(c4cccc(Cl)c4Cl)CC3)cc2N1` is recorded as 1.8% (measured: Hypotension; patients, CYP2D6 intermediate metabolizers; dose not given, long-acting oral or depot).
`Cc1cc(Nc2ccc(S(F)(F)(F)(F)F)cc2)n2nc(C(C)(F)F)nc2n1` — result for “adverse event Pyrexia”: 27.3% (Plasmodium falciparum malaria patients; oral, 250 mg).
`NCCONC(=O)[C@@H]1CC[C@@H]2CN1C(=O)N2OS(=O)(=O)O`: “adverse event incidence” 0% (measured: leading to withdrawal; healthy Chinese men; intravenous, 1 g, treatment-emergent).
`CNC(=O)c1ccc(-c2cnc3ncc(Cc4ccc5ncccc5c4)n3n2)cc1F` — result for “adverse event incidence”: 3% (phase 1 clinical trial, measured: blood creatinine increased; all expansion cohorts; oral, 600 mg twice daily, grade 3 or 4).
`FC(F)(F)c1ccc(CNc2ccc(Cc3c[nH]c4ncc(Cl)cc34)cn2)cn1` — result for “adverse event incidence”: 11% (measured: Pyrexia; patients with advanced solid tumours; oral, dose not given, grade 1 and 2, possibly related to drug).
`Cc1c(C(=O)O)ccc2c3n(nc12)[C@@H]1[C@H](C3)N(CC2CC2)[C@@]2(C(=O)Nc3cc(Cl)ccc32)[C@H]1c1cccc(Cl)c1F`: “adverse event incidence” 46.3% (phase Ia trial, measured: Anemia; cancer patients; oral, dose not given, all patients all grades).
`Cc1c(Cl)c(C)[n+]([O-])c(Cl)c1-c1noc(-c2cc(O)c(O)c([N+](=O)[O-])c2)n1` — result for “adverse drug reaction incidence”: 6.7% (measured: Bloating; healthy Chinese subjects; oral, 25 mg, 4 days).
